{"data": "Measurements collected from several papers", "note": "Each numbered part is a random draw from the data of one study; scales do not carry over between parts. Substitutions count along the parent as printed."}
{"data": "Block 1", "target": "ABI1, truncated, D143A, DHFR fusion (Arabidopsis thaliana)", "method": "DHFR PCA, deep sequencing", "medium": "yeast", "notes": "methotrexate growth selection, single substitutions", "together with": "(+)-ABA 710 µM", "reference": "wild-type fitted maximum", "reading": "higher = stronger binding", "starting sequence": "PYL1, truncated, DHFR fusion (Arabidopsis thaliana); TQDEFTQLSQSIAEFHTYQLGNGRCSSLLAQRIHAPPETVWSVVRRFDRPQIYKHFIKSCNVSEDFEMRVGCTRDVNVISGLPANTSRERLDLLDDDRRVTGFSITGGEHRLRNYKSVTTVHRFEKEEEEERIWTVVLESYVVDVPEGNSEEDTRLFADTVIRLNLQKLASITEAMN"}
{"Variant": "L28S", "relative binding score [%]": 75.6}
{"Variant": "L138K", "relative binding score [%]": 19.2}
{"Variant": "E89G", "relative binding score [%]": 11.3}
{"Variant": "D153T", "relative binding score [%]": 68.8}
{"Variant": "T101W", "relative binding score [%]": 72.6}
{"Variant": "V76N", "relative binding score [%]": 79.1}
{"Variant": "V143H", "relative binding score [%]": -7.99}
{"Variant": "E139T", "relative binding score [%]": 101}
{"Variant": "R69S", "relative binding score [%]": 99}
{"Variant": "S9L", "relative binding score [%]": 89.4}
{"Variant": "R32D", "relative binding score [%]": 86.5}
{"Variant": "W41K", "relative binding score [%]": 9.83}
{"Variant": "E128L", "relative binding score [%]": 103}
{"Variant": "I105F", "relative binding score [%]": 3.58}
{"Variant": "V142L", "relative binding score [%]": 94.2}
{"Variant": "V100D", "relative binding score [%]": -4.4}
{"Variant": "E131P", "relative binding score [%]": 110}
{"Variant": "Q31K", "relative binding score [%]": 102}
{"Variant": "R88D", "relative binding score [%]": 82.4}
{"data": "Block 2", "target": "CREB3L4, bZIP domain (human)", "method": "DHFR protein complementation", "medium": "yeast", "notes": "single substitutions, most at no-binding floor", "reference": "wild-type JUN-FOS pair", "reading": "higher = stronger binding", "starting sequence": "JUN, bZIP domain (human); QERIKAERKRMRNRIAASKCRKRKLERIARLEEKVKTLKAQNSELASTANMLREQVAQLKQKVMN; partner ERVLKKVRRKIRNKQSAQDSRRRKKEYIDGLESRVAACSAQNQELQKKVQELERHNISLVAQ"}
{"Variant": "L45R", "binding fitness": "-1.53 natural log"}
{"Variant": "K36L", "binding fitness": "-1.49 natural log"}
{"Variant": "V56A", "binding fitness": "-1.59 natural log"}
{"Variant": "R30F", "binding fitness": "-1.55 natural log"}
{"Variant": "K36T", "binding fitness": "-1.3 natural log"}
{"Variant": "N42F", "binding fitness": "-1.41 natural log"}
{"Variant": "E44F", "binding fitness": "-1.56 natural log"}
{"Variant": "S43L", "binding fitness": "-1.49 natural log"}
{"Variant": "L45S", "binding fitness": "-1.46 natural log"}
{"Variant": "K36W", "binding fitness": "-1.51 natural log"}
{"Variant": "A40R", "binding fitness": "-1.35 natural log"}
{"Variant": "T37G", "binding fitness": "-1.46 natural log"}
{"Variant": "L31V", "binding fitness": "-1.51 natural log"}
{"Variant": "Q41N", "binding fitness": "-1.57 natural log"}
{"Variant": "S47E", "binding fitness": "-1.49 natural log"}
{"Variant": "A29Q", "binding fitness": "-1.51 natural log"}
{"Variant": "A49Y", "binding fitness": "-1.45 natural log"}
{"data": "Block 3", "target": "Prothrombin, mature alpha-thrombin (F2, Homo sapiens, UniProt P00734)", "method": "aptamer microarray, sandwich", "molecule type": "DNA with 2'F-ANA", "medium": "in vitro", "concentration": "200 nM", "notes": "whole 15-mer aptamer, many near background", "together with": "Cy3 exosite-II aptamer, 400 nM", "reading": "higher = stronger binding", "oligonucleotide": "GGTTGGTGTGGTTGG"}
{"Modification": "2'F-ANA at 1 2 3 4 7 8 9 10 13 14 15", "mean fluorescence intensity [a.u.]": 48}
{"Modification": "2'F-ANA at 2 3 4 5 8 10 14", "mean fluorescence intensity [a.u.]": 46.5}
{"Modification": "2'F-ANA at 1 3 6 7 13 14 15", "mean fluorescence intensity [a.u.]": 81}
{"Modification": "2'F-ANA at 7 8 9 10 11 13 15", "mean fluorescence intensity [a.u.]": 140}
{"Modification": "2'F-ANA at 2 3 4 5 6 7 8 9 10 11 13", "mean fluorescence intensity [a.u.]": 64.6}
{"Modification": "2'F-ANA at 1 4 6 7 8 12 13 14", "mean fluorescence intensity [a.u.]": 77.4}
{"Modification": "2'F-ANA at 1 2 3 5 6 9 14 15", "mean fluorescence intensity [a.u.]": 50.8}
{"Modification": "2'F-ANA at 3 4 5 6 7 10 11 14", "mean fluorescence intensity [a.u.]": 196}
{"Modification": "2'F-ANA at 7 9 11 12", "mean fluorescence intensity [a.u.]": 745}
{"Modification": "2'F-ANA at 2 7 8 10", "mean fluorescence intensity [a.u.]": 168}
{"Modification": "2'F-ANA at 1 2 6 7 8 9 10 13", "mean fluorescence intensity [a.u.]": 60.5}
{"Modification": "2'F-ANA at 1 2 3 5 10 12 13 14", "mean fluorescence intensity [a.u.]": 45.6}
{"Modification": "2'F-ANA at 7 8 11 12 14 15", "mean fluorescence intensity [a.u.]": 278}
{"Modification": "2'F-ANA at 3 6 7 10 13", "mean fluorescence intensity [a.u.]": 479}
{"Modification": "2'F-ANA at 1 4 7 8 14", "mean fluorescence intensity [a.u.]": 58.3}
{"Modification": "2'F-ANA at 2 3 4 5 6 7 8 9 11 12 13", "mean fluorescence intensity [a.u.]": 105}
{"Modification": "2'F-ANA at 2 4 6 8 9 10 12 15", "mean fluorescence intensity [a.u.]": 104}
{"Modification": "2'F-ANA at 1 3 4 5 6 7 8 10 11 13 14 15", "mean fluorescence intensity [a.u.]": 55.1}
{"Modification": "2'F-ANA at 1 2 3 4 9 10 12 15", "mean fluorescence intensity [a.u.]": 78.2}
{"Modification": "2'F-ANA at 1 2 8 10 15", "mean fluorescence intensity [a.u.]": 54.6}
{"Modification": "2'F-ANA at 2 3 4 7 8 9 13 15", "mean fluorescence intensity [a.u.]": 453}
{"Modification": "2'F-ANA at 1 2 3 5 8 10 13 14 15", "mean fluorescence intensity [a.u.]": 61.2}
{"data": "Block 4", "target": "Fragile X messenger ribonucleoprotein 1, C-terminal low-complexity region (Fmr1, Mus musculus, UniProt P35922)", "method": "RNA Bind-n-Seq", "molecule type": "RNA", "medium": "in vitro", "concentration": "200 nM", "notes": "whole 134-nt RNA, ends assumed", "together with": "150 mM LiCl", "reference": "input library", "reading": "higher = stronger binding", "library": "7-deaza-guanosine replaces G"}
{"Oligonucleotide": "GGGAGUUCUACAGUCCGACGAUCGCAGGAAGUAAAAACAAAUGGAAAUACUUCGGAUAGUGGCAGGGGUGGGGGUUGCUAAGGAAAGGGUGGGAUGGGAGUGGGUAAAGAGUUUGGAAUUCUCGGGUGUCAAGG", "log2 enrichment": 1.41}
{"Oligonucleotide": "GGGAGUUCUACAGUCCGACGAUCCACAGACAACACGCACCCACACAGACAUAGAGGGAAGGGGUUGGGAUGGGGACAGGGUGCACAGCAGGGCGGGGUAGGACCCCAGCCCCUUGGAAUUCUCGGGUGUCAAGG", "log2 enrichment": 0.311}
{"Oligonucleotide": "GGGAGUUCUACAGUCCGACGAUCUGGCCCUGGUGGCAUGCGGGGAGGAAGAGGUGGCCUCAUGGAUCGUGGUGGUCCCGGUGGAAUGUUCAGAGGUGGCCCUGGUGGAGACAGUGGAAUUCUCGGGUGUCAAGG", "log2 enrichment": -0.132}
{"Oligonucleotide": "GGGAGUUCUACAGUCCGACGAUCACCAUGCAGGUGGGCAUCUUUGGGAAGUGGGGCAAGGGGGGGAUAGGGAGGGGGGUAACACUUUGGGAACAGGUGGUCCCAGGACGUUUCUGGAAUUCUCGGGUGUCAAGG", "log2 enrichment": 0.979}
{"Oligonucleotide": "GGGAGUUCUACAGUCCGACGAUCUCAAGUCCUGUGCUACACAUCGUAUGUACCGAAUCGGAAAGGGAAAGGAAAGGGAAAGUAUUAUGUUACGCCGUUCGGAUCUGCACUUCCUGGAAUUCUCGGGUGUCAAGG", "log2 enrichment": -0.4}
{"Oligonucleotide": "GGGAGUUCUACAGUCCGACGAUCUCCUGUGCUACACAUCGUAUGUACCGAAUCGGAAAAAAAGGAAAAAAAGGUUUUUUUGGAAAGUAUUAUGUUACGCCGUUCGGAUCUGCAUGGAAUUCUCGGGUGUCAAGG", "log2 enrichment": -2.09}
{"Oligonucleotide": "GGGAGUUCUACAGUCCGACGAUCCAAGUCCUGUGCUACACAUCGUAUGUACCGAAUCGGAAAGGGAAAGGGGAAAGGGAAAGUAUUAUGUUACGCCGUUCGGAUCUGCACUUCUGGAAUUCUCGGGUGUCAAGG", "log2 enrichment": -0.213}
{"Oligonucleotide": "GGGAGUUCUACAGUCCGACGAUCAUGGAUGACCCCUCUGUGGGCCCCAAGAUCCCCCAGGCUUUGGAGAAGAUCCUGCAGCUGAAGGAGAGCCGCCAGGAAGAGAUGAAUUCUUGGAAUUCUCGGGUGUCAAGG", "log2 enrichment": 0.496}
{"data": "Block 5", "target": "CCNE2, cyclin fold, Cln2 fusion (human)", "method": "yeast growth competition, sequencing", "medium": "yeast", "notes": "strong parent motif", "reference": "not given", "reading": "higher = stronger binding", "starting sequence": "E2F1 docking peptide (human); PPVKRRLDLETDH"}
{"Variant": "H13L", "normalised enrichment score": 1.47}
{"Variant": "L7P", "normalised enrichment score": -0.171}
{"Variant": "E10Q", "normalised enrichment score": 1.47}
{"Variant": "R6C", "normalised enrichment score": -0.0263}
{"Variant": "K4W", "normalised enrichment score": -0.0506}
{"Variant": "P2N", "normalised enrichment score": 1.1}
{"Variant": "L7Y", "normalised enrichment score": 0.388}
{"Variant": "D8Y", "normalised enrichment score": 1.88}
{"Variant": "P2M", "normalised enrichment score": 0.295}
{"Variant": "R6H", "normalised enrichment score": 0.47}
{"Variant": "R5Q", "normalised enrichment score": 0.114}
{"Variant": "R6T", "normalised enrichment score": 0.687}
{"Variant": "P1S", "normalised enrichment score": 0.647}
{"Variant": "H13S", "normalised enrichment score": 1.17}
{"Variant": "K4F", "normalised enrichment score": -0.131}
{"Variant": "D8K", "normalised enrichment score": 1.49}
{"data": "Mixed results"}
{"Substance": "PhoQ, residues 284 288 289 292 302 303 SLANKL", "target": "PhoP, residues 12 14 15 18 19 NQFFI (Escherichia coli, UniProt P23836)", "test": "Sort-seq, measured: YFP reporter", "test system": "E. coli", "setting": "PhoQ-PhoP variant library, together with: 10 µM Mg2+", "how to read": "reference: high Mg2+ state, higher = stronger signaling", "quantity": "fold induction", "value": 18.9}
{"note": "For quick reference, copied from above (block 4):"}
{"Oligonucleotide": "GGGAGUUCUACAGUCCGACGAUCGCAGGAAGUAAAAACAAAUGGAAAUACUUCGGAUAGUGGCAGGGGUGGGGGUUGCUAAGGAAAGGGUGGGAUGGGAGUGGGUAAAGAGUUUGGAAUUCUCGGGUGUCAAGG", "log2 enrichment": 1.41}
{"Oligonucleotide": "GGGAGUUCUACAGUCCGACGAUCCACAGACAACACGCACCCACACAGACAUAGAGGGAAGGGGUUGGGAUGGGGACAGGGUGCACAGCAGGGCGGGGUAGGACCCCAGCCCCUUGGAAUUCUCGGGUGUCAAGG", "log2 enrichment": 0.311}
{"Oligonucleotide": "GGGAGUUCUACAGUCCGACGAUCUGGCCCUGGUGGCAUGCGGGGAGGAAGAGGUGGCCUCAUGGAUCGUGGUGGUCCCGGUGGAAUGUUCAGAGGUGGCCCUGGUGGAGACAGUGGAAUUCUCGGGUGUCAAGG", "log2 enrichment": -0.132}
{"Oligonucleotide": "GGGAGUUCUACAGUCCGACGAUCACCAUGCAGGUGGGCAUCUUUGGGAAGUGGGGCAAGGGGGGGAUAGGGAGGGGGGUAACACUUUGGGAACAGGUGGUCCCAGGACGUUUCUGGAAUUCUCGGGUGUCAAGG", "log2 enrichment": 0.979}
{"Oligonucleotide": "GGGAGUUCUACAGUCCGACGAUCUCAAGUCCUGUGCUACACAUCGUAUGUACCGAAUCGGAAAGGGAAAGGAAAGGGAAAGUAUUAUGUUACGCCGUUCGGAUCUGCACUUCCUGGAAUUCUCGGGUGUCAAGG", "log2 enrichment": -0.4}
{"Oligonucleotide": "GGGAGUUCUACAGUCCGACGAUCUCCUGUGCUACACAUCGUAUGUACCGAAUCGGAAAAAAAGGAAAAAAAGGUUUUUUUGGAAAGUAUUAUGUUACGCCGUUCGGAUCUGCAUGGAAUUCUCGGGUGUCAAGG", "log2 enrichment": -2.09}
{"Oligonucleotide": "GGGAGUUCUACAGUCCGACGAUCCAAGUCCUGUGCUACACAUCGUAUGUACCGAAUCGGAAAGGGAAAGGGGAAAGGGAAAGUAUUAUGUUACGCCGUUCGGAUCUGCACUUCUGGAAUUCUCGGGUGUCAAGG", "log2 enrichment": -0.213}
{"Oligonucleotide": "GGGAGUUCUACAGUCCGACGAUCAUGGAUGACCCCUCUGUGGGCCCCAAGAUCCCCCAGGCUUUGGAGAAGAUCCUGCAGCUGAAGGAGAGCCGCCAGGAAGAGAUGAAUUCUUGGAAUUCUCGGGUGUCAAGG", "log2 enrichment": 0.496}
